Assay results gathered from unrelated publications.
A part holds a random share of what one study measured.

Set 1 — technique: protein binding microarray; molecule type: double-stranded DNA, one strand shown; medium: in vitro; concentration: not given; relative to: not given; reading: higher = stronger binding; measurement: E-score
Target: Histone acetyltransferase KAT6A, winged helix 2, GST fusion (KAT6A, Homo sapiens, UniProt Q92794, residues 85-181)
Notes: 8-mer, flanks averaged, mean of 2 arrays, mostly near background
Residues (chain): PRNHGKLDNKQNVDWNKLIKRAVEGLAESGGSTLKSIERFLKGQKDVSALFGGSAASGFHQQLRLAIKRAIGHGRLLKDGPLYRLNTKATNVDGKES
ACCAGGAG: 0.0649
GAGATGCA: 0.0845
ATCGAGCC: 0.0399
AGAAGTCC: -0.0836
GTGGGTAA: -0.0775
GACAGCCC: -0.047
CCGGAGAA: 0.0329
CTCTTCAA: -0.0322
ACCCCATA: -0.0596
CGCCAGAG: 0.15
AATAAGAG: 0.149
CCATACAG: -0.168
GACCAATA: -0.265
TAAAGGGA: 0.0287
ATTTACTA: -0.0234
CATGTCAC: -0.117
ATACCTGA: 0.0861
GATCATTA: -0.0905
ACTCATGA: -0.0201
GCGTTGTA: -0.141
CGGACAGC: 0.0531
CATTTTCG: -0.0334
ACAAAATG: -0.0292

Set 2 — technique: RNA Bind-n-Seq; molecule type: RNA; medium: in vitro; concentration: 100 nM; relative to: input RNA pool; reading: higher = stronger binding; measurement: bound/input enrichment
Target: RING finger protein unkempt homolog, zinc fingers 1-6, SBP tag (UNK, Homo sapiens, UniProt Q9C0B0, residues 30-357)
Sequence of UniProt Q9C0B0 (30-357, looked up): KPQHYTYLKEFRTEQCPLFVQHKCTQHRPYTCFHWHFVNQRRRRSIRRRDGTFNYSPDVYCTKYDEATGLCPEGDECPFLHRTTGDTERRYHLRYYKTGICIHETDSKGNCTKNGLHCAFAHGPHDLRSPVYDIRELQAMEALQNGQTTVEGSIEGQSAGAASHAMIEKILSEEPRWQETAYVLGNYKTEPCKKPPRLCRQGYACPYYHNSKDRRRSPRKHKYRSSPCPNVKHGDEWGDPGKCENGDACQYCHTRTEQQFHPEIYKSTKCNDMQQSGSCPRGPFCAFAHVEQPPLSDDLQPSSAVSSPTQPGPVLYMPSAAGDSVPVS
Notes: RNA with constant flanks, vertebrate orthologous sites, ends assumed
Constant ends, left off below: GGGAGUUCUACAGUCCGACGAUC … CAACAGAGGAUUGAGCAUCA
AUGUUAAUUAGAGGUAGUAUAUGUUUCAUAAUGAAGAGUCUUUAAAUUUUGUUUGUCAUAUAGUAUUUUGGGAUUUAUAUAAUGAGGAUGAUUAGAAGCCACAUAAAUGGCUUUUUUAAC: 0.361 ratio
GCUACAGGGAAAAGAGCUCACAAACUCAAAACUAUUAAAGAAGUUCUAAUAGUUAAAAGCUAGGAAAGAUUAGGACAAUUUUACAAAUGAGCAAUUAAAAAUAAAACAAAAGAAAAAGGA: 1.12 ratio
GUCACGGGACACCGAAUGGAGAGAGAAGCAAAUCAAACCAGCAAAGGUUGGGUAAAAUUGCUGCCAUCUGCAUAAUGGCUAAGUUGCAGUCACUUUUCUGCGUAAAACCAGCUGUGUUUA: 0.396 ratio
UGUCUUGGUUUGGGAUAGAGGGGAGGGAGGGGCAGGACAGUGUGGAAUCUCUAGGGUGUAUGGGUAGAUAGGCUGCACGGUUAGUUCUAAUUGGGCCUUUAUGUUAAUCUCUGGGGGGUG: 0.642 ratio
GUGUUGGUACAGAGUGCUCUGUACCAGUGCUCAUCAUCCCUUCUUCAUACCAACGGUCCCUAGUUAUAGGAAUUUAAUAUUUUUAAAAGUUUUACAUUGCUGUAUAUUCAAAGAUUUGUU: 0.609 ratio
GAACAUAUGUAGAAAACAACUUUCACUGAACCCAUUGUCAAGUUUUCCCCUAGAAUUUUAUUUGGACUUCUUUUGUUUUAUACAAGCUUGCAGUGUUUGUCAUUAUUAGUCCACAAUUAA: 0.493 ratio
AGAAAAUUUUAAUCAAGAAUCUGAAGGUAGAAAUACAGGACCAUGGUUAUCUUCUUCACUUAGAAAUAGAUGCACACCCUUGUUCUCUAGAAGGAGGCGAGAGGGACGAGAUGAAUCUUC: 0.519 ratio
UUGUAUGUAGAGAAAAUUUUUCAUUGACCCCCCCAUUGUGAAACUCCAUAGCAGUUUAUUUAGAAUCUUAAUUUUUCUAAUACAAGCUCACUGUAUUAGUCAUUUUAGCCCAUAAUUAAA: 4 ratio

Set 3 — technique: RNA Bind-n-Seq; molecule type: RNA; medium: in vitro; concentration: 365 nM; relative to: no-protein control; reading: higher = stronger binding; measurement: RBNS enrichment (R)
Target: RNA binding protein fox-1 homolog 2, RRM domain, GST-SBP tag (RBFOX2, Homo sapiens, UniProt O43251-10, residues 100-194)
Notes: natural RNA segment, single round, ends assumed
Constant ends, left off below: GGGAGUUCUACAGUCCGACGAUC … UGGAAUUCUCGGGUGCCAA
Target sequence (chain): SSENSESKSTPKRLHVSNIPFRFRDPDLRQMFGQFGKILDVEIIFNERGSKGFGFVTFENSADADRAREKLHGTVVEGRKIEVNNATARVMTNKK
AUAGAGUGGUAUUUAGAAAAUAAAUUGCAUUGCAAAGCUCUUAUCGGCUCAUAUGAGAGAGCAGGUUCCUGCCCUUGAAAAUGCCGGUAAGCUAUAGCAUAUGUUUUUUA: 0.32
ACUCUGCAGUGUUGAUUUUUUAAAGUAGUUUUCUGCAAUGAGCUUUUAGUCUAAGGAAAGCAUAGAUGAAGCAAUACUUUCCUUCUUUGAUGAAAAGCCUAGAAAUUAGU: 0.766
CAAUAGGUAUUAUUUUAUCCCCCAUUUUAUAAAUGAGGAAACGGAGGCUUAGUUGAGUGAGCUGACCAAUAUCACCCAGCCAGUAUGUGAUAAAACUGAUUCUGACCCAC: 0.402
UCUGCCUUAGGCUGCUGGGAGAUGCCAUUCUCCAGUUUCAGAAGCAGGCAGGGCAAAGGUCAAGACUGUGGUAUUGGGGUCUUUUGGCUCUGAAGGAUCCUGGAACCACU: 0.283
CUUGCCUCAUAAUAGAUGUGGUGACUCUCCCGGUAGACCCUAGCAAGGGUCCUCCAUGGUGGUGAGGGACUCAGGAGAAUUGUAGGGAUUGGGGGACCCUGCCUGCCUGG: 1.4
AAUCGGAAACCUGUGAGUCAGAGUCAGAGAAACUUACCCAAGCAACGUAAUUCCUGUUUUCAUGGGUCCUGUAGAUGUUUGAGUCAGGAAGGUAAGGCGGGGAGUGACUG: 0.764
AUAAAUCAGAACUAGCAGAAGUAGCAGAGUGAUGGGAGCAAAAUAGGCACUGAAUUCGUCAACUCUUUUUUGUGAGCCUACUUGUGAAUAUUACCUCAGAUACCUGUUGU: 0.258
GAGAAAAGGAUGUGACUGCCCAUCCUAGGUAUACUGGCUGUCUCCCUCAGUGGAGAAGAUGAGAAGAACAUCUUGGGGUGCUUUUCUGUUAUAGGGUCCCCUCCCUGACG: 0.459

Set 4 — technique: competition protein-binding microarray; molecule type: double-stranded DNA, one strand shown; medium: in vitro; concentration: 2 µM; together with: Cbf1 competitor, 0.05 µM; reading: higher = stronger binding; measurement: fluorescence intensity; constant ends, left off below: … GTCTTGATTCGCTTGACGCTGCTG
Target: Phosphate system positive regulatory protein PHO4, full length, GST-tagged (PHO4, Saccharomyces cerevisiae, UniProt P07270, residues 1-312)
Notes: whole 60-bp probe, lowest competitor level
Construct (chain): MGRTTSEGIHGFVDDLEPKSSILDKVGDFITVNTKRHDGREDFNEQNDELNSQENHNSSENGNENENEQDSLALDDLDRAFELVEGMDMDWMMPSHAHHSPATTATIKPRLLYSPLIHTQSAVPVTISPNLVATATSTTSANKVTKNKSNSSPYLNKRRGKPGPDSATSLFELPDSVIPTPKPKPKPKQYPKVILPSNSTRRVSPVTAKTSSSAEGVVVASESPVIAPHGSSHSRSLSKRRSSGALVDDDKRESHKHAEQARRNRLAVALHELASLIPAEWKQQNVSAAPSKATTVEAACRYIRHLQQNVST
AGACAGTACGATAGCGACGTGCCAGTGTTATTGATG: 7780 a.u.
CGTCCTAGTGATTGTCACGGCACTTCCATGAGGAAG: 4760 a.u.
GTCTCCATCTTCTTCCACGGGGGCTAGAACACCATC: 8080 a.u.
CAGGCTGGTGCGCAGCACATGGCCGGGCTCCGGGTG: 10300 a.u.
CTTTCCCGATCTTCACACGTGTTTTTAGCACATTTG: 17100 a.u.
AAAGCGGTAATTTGTCACGTCACTTCACATATCTAT: 4390 a.u.
CTTCTGTAAATTTGATCGGTGGGTGGACGCGCCCCG: 3820 a.u.
AAAAGACCATCCCATCACGTGACTCGTTTTTCCTGC: 13800 a.u.
CATACCCAACCTTGCAAGGTGGGTGAAGATATTTGT: 3880 a.u.
AAATTACTAAGTTGAGTAGTGGGTGACGCCGTATGA: 4080 a.u.
ACACAGATTGGCCATCACGCACCCATAATCATTTCT: 7290 a.u.
TGCTGAAACAACTGGCACGCAAGGTTTTTTAGCAGC: 6000 a.u.
CGGGGTTAAGTTTGGGCGGTGGGTGGCTTGCAGCAG: 4910 a.u.
GAAGATAGCCACCATCACGTGAAGGCCATCCCAAGA: 11200 a.u.
CGTCCTAGTGATTGGACGGTGGGTGCCATGAGGAAG: 7470 a.u.
TCGCAGATGCCATATCCCGTGCCGAATATACTATAA: 9630 a.u.
